Assay results of several laboratories.
Parts stem from different laboratories: compare values within a part only.

Block 1
Target: Interferon regulatory factor 7, full length, phosphomimetic (IRF7, Homo sapiens, UniProt Q92985, residues 1-503, S101K/S471D/S472D/S475D/S476D/S477D/S483D/S484D/S487D)
Method: protein-binding microarray
Molecule type: double-stranded DNA, one strand shown
Medium: in vitro
Tested at: 250 nM
Setting: 60-bp whole probe
With: salmon DNA 0.4 mg/ml
Baseline: random background probes
Reading: higher = stronger binding
Endpoint: log fluorescence
Constant ends, left off below: GCCTAGCAC … GTCTTGATTCGCTTGACGCTGCTG
Target sequence (chain): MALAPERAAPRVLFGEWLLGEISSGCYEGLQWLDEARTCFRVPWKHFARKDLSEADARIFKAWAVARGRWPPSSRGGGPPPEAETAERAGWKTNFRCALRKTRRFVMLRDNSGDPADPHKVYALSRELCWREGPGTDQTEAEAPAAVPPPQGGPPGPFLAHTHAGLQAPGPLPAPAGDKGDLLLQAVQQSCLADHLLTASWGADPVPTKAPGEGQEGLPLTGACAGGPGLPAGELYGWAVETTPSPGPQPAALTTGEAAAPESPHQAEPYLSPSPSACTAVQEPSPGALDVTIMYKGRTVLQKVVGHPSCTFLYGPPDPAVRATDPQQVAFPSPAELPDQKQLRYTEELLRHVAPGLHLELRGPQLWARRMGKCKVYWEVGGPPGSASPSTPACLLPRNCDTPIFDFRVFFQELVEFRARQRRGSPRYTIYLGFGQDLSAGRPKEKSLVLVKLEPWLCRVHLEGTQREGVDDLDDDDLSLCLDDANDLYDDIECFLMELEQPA
GACGATATCAGATTGGAGACGTGCTAG: -0.135 z-score
GACGATTTCGGGTGTCGAGACGTGCTA: 0.121 z-score
TTAGATTTCATTCTCGATTAGTGCTAG: 1.94 z-score
GACGGTTTCGGTTTCGCGACGTGCTAG: 14.1 z-score
TTAGCTCTCAGACTGGATTAGTGCTAG: -0.19 z-score
GATTGGCTGACTTTGGAGATGTGCTAG: 0.000712 z-score
GACGGTCTCGGTTTCGGGAAGTGCTAG: 7.28 z-score
GAACATACTAGTTTCCATTTGTGCTAG: 8.52 z-score
GGCGATTTCGGGTATCGAGACGTGCTA: 0.474 z-score
CTAGTAGCCTAAGGCTACCGGTGCTAG: 0.176 z-score
GTAGATATCAGACTGGATTAGTGCTAG: -0.551 z-score
ATGAAGTTCTTTTTTTCAAGGTGCTAG: 0.044 z-score
TGTTATTAAAATTTAATGGGGTGCTAG: 0.458 z-score
GACGGTTTCGGTATCGAGACGTGCTAG: 10.3 z-score
TTAGCTATCCTTTTCCTTTAGTGCTAG: 0.515 z-score
GACGGTACCGGGTTTCGGGACGTGCTA: 2.52 z-score
TTATAACTGGGGTTTCGATTAGTGCTA: 6.17 z-score
TAAATTCTGAAAATGGAAACGTGCTAG: 0.232 z-score
TTAGATCTCAGACTGCATTAGTGCTAG: -0.0104 z-score
TTAGATTCCAATTTCGATTAGTGCTAG: 3.09 z-score
TCAACTCTGAACCTTGGACTGTGCTAG: 0.045 z-score
TACGATTTCAGTTTCGAGACGTGCTAG: 4.94 z-score
TTAAGACTGGGTTTCGGTTAGTGCTAG: 6.78 z-score
ATCATTTTTGCTTACGATGCGTGCTAG: 0.574 z-score
TTAGGACTGTGTTTCGGTTAGTGCTAG: 3.72 z-score

Block 2
Target: Centromere-binding protein 1, full length, His-tagged (CBF1, Saccharomyces cerevisiae, UniProt P17106, residues 1-351)
UniProt P17106, sequence (whole entry, looked up): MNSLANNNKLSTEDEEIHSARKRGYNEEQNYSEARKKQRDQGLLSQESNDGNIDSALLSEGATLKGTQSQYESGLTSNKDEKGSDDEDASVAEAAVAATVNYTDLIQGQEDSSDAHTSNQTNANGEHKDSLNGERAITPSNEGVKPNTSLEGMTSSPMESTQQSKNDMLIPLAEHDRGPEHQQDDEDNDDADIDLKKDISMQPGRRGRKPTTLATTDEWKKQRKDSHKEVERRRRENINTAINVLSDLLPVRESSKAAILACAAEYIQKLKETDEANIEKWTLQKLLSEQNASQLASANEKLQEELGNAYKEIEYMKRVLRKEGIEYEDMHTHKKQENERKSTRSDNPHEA
Method: competition protein-binding microarray
Molecule type: double-stranded DNA, one strand shown
Medium: in vitro
Tested at: 2 µM
Setting: whole 60-bp probe, lowest competitor level
With: Pho4 competitor, 0.05 µM
Reading: higher = stronger binding
Endpoint: fluorescence intensity
Constant ends, left off below: … GTCTTGATTCGCTTGACGCTGCTG
TGGCGGTTAGTCCTCTGCGTGATGGATCGTTGTAAT: 75.5 a.u.
CCATGTTACATAATCTTCGTGCCAGTCTAATTCGTA: 74 a.u.
CTTCTGTAAATTTGTCACAGAACTTGACGCGCCCCG: 86 a.u.
GTCTTGTCTCATTGGTAAGTGGGTGTCCCCACTTCA: 72.7 a.u.
TTAAATTCAAGTTACCTCGTGTTCCTAGTCATTGGC: 177 a.u.
ATAGAAATGGGTAGCCTTGTGACGGTGGATAATTCT: 98.4 a.u.
TAACGCTGGGTTTTGCACGTGTTGATAATTACATCG: 2440 a.u.
GACTTTAGCTGCAACGGCGTGGGTATGCCGCAGCGG: 70.4 a.u.
CTAACGAAGGTTTGTCACTGCACTTACAAGCCAAGT: 76.3 a.u.
AAGAAGATTTACTCTCCCGTGATGGCGGGCCAATCA: 133 a.u.
GAGCCCTCTGTATTTCATGTGACGGGAGTGTAATTT: 212 a.u.
GTCTTGTCTCATTTTCACGTGGGATTCCCCACTTCA: 428 a.u.
CTAACGAAGGTTTTCCACGTGTTTTACAAGCCAAGT: 775 a.u.
TATACCTTTGTTCGTCACGTGAACCAACAGAACATG: 6930 a.u.
GTCTTGTCTCATTGTCACTATACTTTCCCCACTTCA: 83.5 a.u.
GATCTTCTGGGCCGTAGCGTGATGGGGTCTGTAAAT: 94.8 a.u.
GCAAAAACACCGCAACTCGTGGTGACGGGGTAAGAA: 78.2 a.u.
CTTCTGTAAATTTGTCACGCAACTTGACGCGCCCCG: 143 a.u.
TGGTGGAGTTTTACCCACGTGATGGAAGACTCCTGG: 3550 a.u.

Block 3
Target: RING finger protein unkempt homolog, zinc fingers 1-6, GST-SBP tag (UNK, Homo sapiens, UniProt Q9C0B0, residues 30-357)
Method: RNA Bind-n-Seq
Molecule type: RNA
Medium: in vitro
Tested at: not given
Setting: RNA with constant flanks, human-mouse chimeric sites, ends assumed
Baseline: input RNA pool
Reading: higher = stronger binding
Endpoint: bound/input enrichment
Constant ends, left off below: GGGAGUUCUACAGUCCGACGAUC … CAACAGAGGAUUGAGCAUCA
Construct (chain): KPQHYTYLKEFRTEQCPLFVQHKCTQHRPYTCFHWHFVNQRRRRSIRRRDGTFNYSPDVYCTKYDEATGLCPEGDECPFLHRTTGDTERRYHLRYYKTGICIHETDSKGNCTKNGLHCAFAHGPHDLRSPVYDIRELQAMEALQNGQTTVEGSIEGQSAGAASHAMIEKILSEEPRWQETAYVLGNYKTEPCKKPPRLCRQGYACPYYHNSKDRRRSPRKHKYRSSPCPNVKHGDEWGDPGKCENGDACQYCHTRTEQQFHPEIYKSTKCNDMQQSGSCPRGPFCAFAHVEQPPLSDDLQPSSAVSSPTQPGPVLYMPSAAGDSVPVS
AGAGCCCAGGAUGUUGAUGCUACAAAUCCAAAUUAUGAAAUUAUGUGUAUGAUCAGAGACUUCAGAGGGAGCUUGGAUUAUAGACCACUAACAACAGCAGAUCCUAUUGAUGAACAUAGG: 0.681 ratio
ACUCAGAGAUCCACCUCCCAAAGUGCUGGGAGUAAAGGUGUGGCCACCACACCUAACUUCAUAGACAUAUAUUUUUUCUCUUUUAUGUCUUCCUGUUCGUCCAGGGAAGAAAGAUUUGUU: 1.75 ratio
AGAAUCUUGGGACUGUUUUACUUAAUUGGUCAUUGAUAGCUUAACAAACAUGGAGAUAAGAUUAGAAGUUUUGACAUCAACAGGUAUUAAGCAGAAAAAACCAUGGCCACGUGUCUCCUG: 0.309 ratio
CACAGAGCAGCACCUACCUCCUCCUUCUUUCCACACCUGCAAACUCUUUUACUUGGGCUGCAUAGUUAGUGUAAUUACAUCUCAGCUUUGAGGGCUCCUGUGGCAAAUUCCCGGAUUAAA: 1.88 ratio
UCUGGUCAUACUCGUGCGUAUGGUGUUUGCUUUGUGGACACUUCACUGGGCAAGUUUUUCAUCGGCCAGUUUUCAGAUGACCGCCACUGUUCCAGAUUUAGGACGCUAGUGGCUCACUAU: 0.214 ratio
UUGCUACUGACUCCCUGGGUCAAGUUCCUGUGGGAAUCAUACAGGCAGUGUUUGGACCUUCUUCGAAACAAUUCUAGAGUAGAGCGCCUGUACCAUGAUAUUGCCCAACAAGCUUUCAAA: 0.144 ratio
AUGGAACAUUUCGAUGCGUCACUCAGUACCUAUUUCAAGGCCUUCCUAGGCCCUCGAGAUACUAGAGUCAAAGGAUGGUUCCUCCUGGACAAUUACAUCCCUACGUUUGUCUGUUCUGUU: 0.0784 ratio
UUCAAAGAAAAGGGCAGCUGUGUCAUUUCAUAAGUAAAACUGCAUCCGGGAAAUUCUGUUCUUUUGUUUAAUUUUCCCCCAAAUGAAGCCAAAGUGUUUUUUAAGGAACUGAGAAAAAAU: 0.304 ratio
GUAUACGGUUAUCGAGGAAAGGACUGUAGAGCGAAUGUAUACCUGCUUCCGACCGGGAAAAUAGUUUAUUUUAUCGCCUCAGUGGUAGUCCUGUUUAAUUAUGAGGAGAGGACUCAGCGA: 5.97 ratio
UAAAUUAGCCAGCACCAUUUCUGUUUCUCCCUGGGCUGCAGACAGCUAGAAGAUUUUAUCUAGCUUAUACAAGGCUGCUGGUGUUCCCUCUUUUUUUCCACGAGGGUGUUUUUGGCUGCA: 0.809 ratio
GCUCCUCCCCGCUCUGCAGCCUGGGGACUUUUGGCAAGGACCAGAAUCUUAUUUUUUUUUAAAACUCUCAGUGUAACUGUAUCCCGUGACAUUUCAUUUUUUUUAAAUAGUGUAUUUUUU: 8.07 ratio

Block 4
Organism: Saccharomyces cerevisiae
Effect on: binding
Method: competitive growth deep sequencing
Molecule type: peptide
Strain: cyclin E1-Cln2 fusion strain
Tested at: concentration not given
Setting: peptide tiling library
Reading: direction not given
Endpoint: growth enrichment score
ESSTVSEEDYFSSHRD: 0.552
AKRSLGFLPQPVPL: 0.23
RDLFDCDFGDLTPLDF: 0.544
CFRCLLFSFSGRSGVE: -0.427
EAAPPTQEAQGETEPT: 0.614
VEEEFFALRKRTPSAG: 0.546
IQKKLRFEDTLEFVGF: 0.258
ARKRLELGNLGNPQ: -0.252
KPHVSDEEEEEPPFYH: 0.157
DVSERGYVILPNDYFE: -0.00628
LRRKLFLDGNGSIS: 0.234
QYQVVDDIVSKLVFDF: 0.373
DKYDEGLYRFNSLNDL: 0.266
GLPDFVFQQQPVESEA: 0.108

Block 5
Target: Sal-like protein 4, full length isoform B (SALL4, Homo sapiens, UniProt Q9UJQ4-2, residues 1-616)
Method: universal PBM
Molecule type: double-stranded DNA, one strand shown
Medium: in vitro
Tested at: not given
Setting: 8-mer, flanks averaged, mean of replicates
Reading: higher = stronger binding
Endpoint: E-score
CACGAACG: -0.0432
AATTTCTC: 0.188
TCCCTAGA: -0.0479
CGGAGCAC: -0.176
CATTCACG: -0.0241
AGTAGCAA: 0.076
CGCGCTTA: -0.208
CACACTAA: 0.141
AAAAACAT: 0.257
ATTCTGTC: -0.0542
ACCTGCGT: -0.128
ATGGTGCC: -0.216
AGTCGTGC: -0.312
ATCAAACC: 0.0345
AGAGGAGG: -0.241
CCTCACGC: -0.056
ACGGTCTC: -0.0386
GCACAGCA: -0.145
GCAGATGC: -0.218
TAACAACA: 0.226
ACTCGGAT: -0.0791
TATCATGA: 0.317
CGGGTATA: 0.0901

For quick reference, copied from above (block 4):
IQKKLRFEDTLEFVGF: 0.258
EAAPPTQEAQGETEPT: 0.614
GLPDFVFQQQPVESEA: 0.108
DVSERGYVILPNDYFE: -0.00628
KPHVSDEEEEEPPFYH: 0.157
DKYDEGLYRFNSLNDL: 0.266
LRRKLFLDGNGSIS: 0.234
ARKRLELGNLGNPQ: -0.252
